Experimental data of several laboratories.
Lines come from different studies, so protocols differ. Values joined by “and” are separate records of one study, mostly repeats; a detail may differ. Numbers after ± are the reported error.
Alpha-amylase: Alpha-amylase (Bos taurus, UniProt Q3MHH8)
FFAR4: Free fatty acid receptor 4 (FFAR4, Homo sapiens, UniProt Q5NUL3)
Sequence of UniProt Q5NUL3 (whole entry, looked up): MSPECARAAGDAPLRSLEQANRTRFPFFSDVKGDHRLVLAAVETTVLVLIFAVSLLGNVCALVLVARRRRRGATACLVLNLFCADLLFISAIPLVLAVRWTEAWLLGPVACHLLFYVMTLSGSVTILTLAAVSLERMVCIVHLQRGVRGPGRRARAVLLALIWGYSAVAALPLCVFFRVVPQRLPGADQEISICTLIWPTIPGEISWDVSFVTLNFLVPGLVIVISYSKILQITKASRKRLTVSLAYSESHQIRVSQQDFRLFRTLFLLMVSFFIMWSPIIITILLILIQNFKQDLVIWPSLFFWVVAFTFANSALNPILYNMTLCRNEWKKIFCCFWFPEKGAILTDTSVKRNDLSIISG
CAMKK2: Calcium/calmodulin-dependent protein kinase kinase 2 (CAMKK2, Homo sapiens, UniProt Q96RR4)
Sequence of UniProt P61073 (whole entry, looked up): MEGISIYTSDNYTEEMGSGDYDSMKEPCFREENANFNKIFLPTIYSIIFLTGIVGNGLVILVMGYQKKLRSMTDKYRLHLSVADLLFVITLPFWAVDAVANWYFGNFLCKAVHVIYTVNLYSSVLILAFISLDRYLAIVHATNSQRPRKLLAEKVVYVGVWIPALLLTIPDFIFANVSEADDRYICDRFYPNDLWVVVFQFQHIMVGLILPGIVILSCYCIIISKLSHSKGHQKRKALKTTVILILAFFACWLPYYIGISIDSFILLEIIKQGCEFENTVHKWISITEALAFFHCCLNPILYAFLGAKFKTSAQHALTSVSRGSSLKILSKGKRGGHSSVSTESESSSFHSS
Sequence of UniProt Q96RR4 (whole entry, looked up): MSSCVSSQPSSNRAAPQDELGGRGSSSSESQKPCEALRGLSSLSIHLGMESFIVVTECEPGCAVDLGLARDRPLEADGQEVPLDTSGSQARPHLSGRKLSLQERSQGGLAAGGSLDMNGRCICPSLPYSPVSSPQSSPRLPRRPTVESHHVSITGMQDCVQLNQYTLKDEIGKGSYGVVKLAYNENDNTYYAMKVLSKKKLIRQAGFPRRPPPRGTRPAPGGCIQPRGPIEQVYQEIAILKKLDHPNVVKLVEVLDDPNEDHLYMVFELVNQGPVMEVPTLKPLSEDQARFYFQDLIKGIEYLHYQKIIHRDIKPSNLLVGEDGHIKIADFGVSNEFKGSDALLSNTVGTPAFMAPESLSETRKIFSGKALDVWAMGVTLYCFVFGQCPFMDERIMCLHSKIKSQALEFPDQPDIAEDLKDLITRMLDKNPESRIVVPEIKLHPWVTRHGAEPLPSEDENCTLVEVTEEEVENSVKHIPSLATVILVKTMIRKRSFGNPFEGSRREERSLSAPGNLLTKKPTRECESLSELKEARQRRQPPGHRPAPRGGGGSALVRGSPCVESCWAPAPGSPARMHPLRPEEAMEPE
Sequence of UniProt P51813 (whole entry, looked up): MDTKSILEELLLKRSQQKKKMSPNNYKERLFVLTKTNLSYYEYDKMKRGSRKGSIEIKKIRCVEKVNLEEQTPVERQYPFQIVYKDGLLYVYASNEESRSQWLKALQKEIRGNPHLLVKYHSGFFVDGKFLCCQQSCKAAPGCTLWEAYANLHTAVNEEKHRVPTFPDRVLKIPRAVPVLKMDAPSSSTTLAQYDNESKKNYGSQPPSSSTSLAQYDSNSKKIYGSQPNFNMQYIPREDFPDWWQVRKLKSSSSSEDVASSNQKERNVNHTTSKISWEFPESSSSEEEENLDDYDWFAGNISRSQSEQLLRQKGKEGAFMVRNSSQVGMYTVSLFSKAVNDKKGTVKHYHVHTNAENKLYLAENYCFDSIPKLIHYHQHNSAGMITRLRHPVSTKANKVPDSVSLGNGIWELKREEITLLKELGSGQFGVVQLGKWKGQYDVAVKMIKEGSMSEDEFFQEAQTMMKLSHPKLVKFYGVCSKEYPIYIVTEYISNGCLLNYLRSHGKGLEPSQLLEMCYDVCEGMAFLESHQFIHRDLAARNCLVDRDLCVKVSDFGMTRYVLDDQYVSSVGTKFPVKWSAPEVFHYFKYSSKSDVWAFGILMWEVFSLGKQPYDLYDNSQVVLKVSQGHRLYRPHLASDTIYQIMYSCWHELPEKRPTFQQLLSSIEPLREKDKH
Sequence of UniProt Q9UHD2 (whole entry, looked up): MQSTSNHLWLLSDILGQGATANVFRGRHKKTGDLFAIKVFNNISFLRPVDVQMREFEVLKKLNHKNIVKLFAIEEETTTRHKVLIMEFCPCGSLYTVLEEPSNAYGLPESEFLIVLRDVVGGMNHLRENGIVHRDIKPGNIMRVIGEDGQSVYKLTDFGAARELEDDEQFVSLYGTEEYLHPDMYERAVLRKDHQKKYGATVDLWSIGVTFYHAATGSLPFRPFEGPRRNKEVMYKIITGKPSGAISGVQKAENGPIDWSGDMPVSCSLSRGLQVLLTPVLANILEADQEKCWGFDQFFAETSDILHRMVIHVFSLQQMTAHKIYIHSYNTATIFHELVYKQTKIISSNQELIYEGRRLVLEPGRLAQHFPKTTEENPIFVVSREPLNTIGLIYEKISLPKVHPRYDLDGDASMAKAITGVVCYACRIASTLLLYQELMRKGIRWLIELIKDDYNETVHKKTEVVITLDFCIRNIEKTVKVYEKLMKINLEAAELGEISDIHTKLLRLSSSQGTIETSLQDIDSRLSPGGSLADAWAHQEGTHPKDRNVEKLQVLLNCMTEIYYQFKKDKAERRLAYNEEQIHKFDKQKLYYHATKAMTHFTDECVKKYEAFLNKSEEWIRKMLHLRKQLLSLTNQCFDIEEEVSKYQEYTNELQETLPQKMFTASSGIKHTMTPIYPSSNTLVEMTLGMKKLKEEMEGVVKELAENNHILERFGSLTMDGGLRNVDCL
Sequence of UniProt P35367 (whole entry, looked up): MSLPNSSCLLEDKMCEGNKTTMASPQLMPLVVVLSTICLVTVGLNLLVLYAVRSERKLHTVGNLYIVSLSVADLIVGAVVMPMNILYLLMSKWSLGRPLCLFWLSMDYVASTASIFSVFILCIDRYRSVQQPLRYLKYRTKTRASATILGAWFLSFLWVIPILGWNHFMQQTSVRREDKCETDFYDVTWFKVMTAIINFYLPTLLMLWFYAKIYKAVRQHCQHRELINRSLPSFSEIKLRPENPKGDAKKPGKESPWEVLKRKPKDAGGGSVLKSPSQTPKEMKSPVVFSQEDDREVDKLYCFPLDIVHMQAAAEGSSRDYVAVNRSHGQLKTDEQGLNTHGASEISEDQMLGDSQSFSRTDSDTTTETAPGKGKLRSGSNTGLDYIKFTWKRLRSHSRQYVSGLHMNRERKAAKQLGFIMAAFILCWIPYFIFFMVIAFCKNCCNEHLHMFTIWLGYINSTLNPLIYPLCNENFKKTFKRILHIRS

SMILES | target or system | test | test system | setting | how to read | endpoint | value
CC1=NN(c2cccc([N+](=O)[O-])c2)C(=O)C1=NNc1ccc(S(N)(=O)=O)cc1 | Alpha-amylase | enzyme activity, inhibitor, glucose oxidase | – | 100 µg/mL, with: dextrin | – | inhibition | 8.64%
O=C(O)CCCCCCCNc1cc(=O)[nH]c(=O)[nH]1 | FFAR4 | antagonist, β-arrestin recruitment | CHO cells | 10 µM, with: 4 µM TUG-891 | – | inhibition | 23 ± 7%
CC[C@@H]1[C@H](F)C(=O)N[C@@H]1COc1nccc2cc(C(N)=O)c(OC)cc12 | CAMKK2 | ATP-site probe binding, ActivX profiling | THP-1 cell lysate | 0.04 mM, Lys1 site | – | inhibition | -13%
CC1=NN(c2ccc(Cl)cc2)C(=O)C1=NNc1ccc(S(N)(=O)=O)cc1 | Alpha-amylase | enzyme activity, inhibitor, glucose oxidase | – | 500 µg/mL, with: dextrin | – | inhibition | 14.4%
O=C(Nc1cccc2c(=O)cc(-c3nnn[nH]3)oc12)c1ccc(OCCCCc2ccccc2)cc1 | Volume-regulated anion channel subunit LRRC8C, part LRRC8A IL1 chimera (LRRC8C, Homo sapiens, UniProt Q8TDW0, E6A) | ion current, inhibitor, whole-cell patch clamp | HCT LRRC8-/- cells | 0.1 µM, +100 mV | – | inhibition | 43.2% and 28.3% and 48.7% and 44.4% and 19.4%
CC1=NOC(=O)C1=NNc1ccc(S(N)(=O)=O)cc1 | Alpha-amylase | enzyme activity, inhibitor, glucose oxidase | – | 10 µg/mL, with: dextrin | – | inhibition | 5.7582 ± 0.00107%
CCN1CCN(Cc2ccc(NC(=O)c3ccc(C)c(/C=C/c4cnc5[nH]ccc5c4OC)c3)cc2C(F)(F)F)CC1 | CAMKK2 | – | A-375 | 0.5 µM | – | inhibition | -30.3%
O=C(O)CCCCCNc1cc(=O)[nH]c(=O)[nH]1 | FFAR4 | antagonist, β-arrestin recruitment | CHO cells | 10 µM | – | inhibition | 16 ± 2%
CC1=NNC(=O)C1=NNc1ccc(S(N)(=O)=O)cc1 | Alpha-amylase | enzyme activity, inhibitor, glucose oxidase | – | 500 µg/mL, with: dextrin | – | inhibition | 34.7%
CC(C)CNc1cc(=O)[nH]c(=O)[nH]1 | FFAR4 | antagonist, β-arrestin recruitment | CHO cells | 10 µM, with: 4 µM TUG-891 | – | inhibition | 20 ± 2%
Cc1cccc(C)c1NC(=O)c1nc(S(C)(=O)=O)ncc1N(Cc1ccccc1)Cc1ccco1 | C-X-C chemokine receptor type 4 (CXCR4, Homo sapiens, UniProt P61073) | arrestin recruitment, antagonist, DiscoverX arrestin | – | 30 µM | reference: control | inhibition | -0.09% and 0.28%
[2H]c1cc(C)c(NC(=O)c2cnc(Nc3cc(N4CCCCC4)nc(C)n3)s2)c(Cl)c1 | Cytoplasmic tyrosine-protein kinase BMX (BMX, Homo sapiens, UniProt P51813) | – | – | 0.0001 µM | – | inhibition | > 50%
CCCCCCCCCCNc1cc(=O)n(C)c(=O)[nH]1 | FFAR4 | antagonist, β-arrestin recruitment | CHO cells | 10 µM, with: 4 µM TUG-891 | – | inhibition | 15 ± 1%
Cn1cc(-c2cnc3ccc(NC(=O)Nc4ccc(F)c(Br)c4)cc3n2)cn1 | Serine/threonine-protein kinase TBK1 (TBK1, Homo sapiens, UniProt Q9UHD2) | kinase binding, KiNativ profiling, refers to: Lys1 peptide | PANC-1 lysate | 10 µM | – | inhibition | 12.1%
CC1=NN(c2cc(Cl)ccc2Cl)C(=O)C1=NNc1ccc(S(N)(=O)=O)cc1 | Alpha-amylase | enzyme activity, inhibitor, glucose oxidase | – | 100 µg/mL, with: dextrin | – | inhibition | 18%
CCCCCCCCNc1cc(=O)[nH]c(=O)n1C | FFAR4 | antagonist, β-arrestin recruitment | CHO cells | 10 µM | – | inhibition | 25 ± 9%
O=C(NO)c1ccc(CN2CCCCc3ccccc32)c(F)c1 | Histamine H1 receptor (HRH1, Homo sapiens, UniProt P35367) | radioligand binding, radioligand displacement | – | 10 µM, mean of replicates | – | inhibition | 30.2%
CCCCCCCCNc1[nH]c(=O)[nH]c(=O)c1N=O | FFAR4 | antagonist, β-arrestin recruitment | CHO cells | 10 µM, with: 4 µM TUG-891 | – | inhibition | 26 ± 4%
CC1=NCCNC(=O)C1=NNc1ccc(S(N)(=O)=O)cc1 | Alpha-amylase | enzyme activity, inhibitor, glucose oxidase | – | 200 µg/mL, with: dextrin | – | inhibition | 14%
Cn1cc(-c2ccc(-c3cncc(Cl)c3N3CCC4(CCNC4=O)CC3)cc2)cn1 | COLO 205 | microarray, refers to: CTGF | – | concentration not given, 2 h | reference: untreated cells | fold change in expression | 2.1

Some of these lines once more:
SMILES | target or system | test | test system | setting | how to read | endpoint | value
Cn1cc(-c2cnc3ccc(NC(=O)Nc4ccc(F)c(Br)c4)cc3n2)cn1 | Serine/threonine-protein kinase TBK1 (TBK1, Homo sapiens, UniProt Q9UHD2) | kinase binding, KiNativ profiling, refers to: Lys1 peptide | PANC-1 lysate | 10 µM | – | inhibition | 12.1%
CC1=NN(c2cc(Cl)ccc2Cl)C(=O)C1=NNc1ccc(S(N)(=O)=O)cc1 | Alpha-amylase | enzyme activity, inhibitor, glucose oxidase | – | 100 µg/mL, with: dextrin | – | inhibition | 18%
